Measurements collected from several papers.
Compare with care: the assays were run in different laboratories. ± gives the spread as reported.

The selectivity ratio of `CSCC[C@H](NC(=O)[C@@H](NC(=O)[C@H](C)N)[C@@H](C)O)C(=O)N[C@@H](Cc1c[nH]c2ccccc12)C(=O)N[C@@H](C)C(=O)N[C@@H](C)C(N)=O` is reported as 2.7 (immunoproteasome and standard proteasome; substrate degradation, substrate, mass spectrometry; 25 µM, 4 h; relative to: immunoproteasome over standard proteasome).
With `CC[C@H](C)[C@@H]1NC(=O)[C@H](Cc2ccc(O)cc2)NC(=O)[C@@H](N)CSSC[C@@H](C(=O)N2CCC[C@H]2C(=O)N2CCC[C@H]2C(=O)NCC(N)=O)NC(=O)[C@H](CC(N)=O)NC(=O)[C@H](CCC(N)=O)NC1=O` the Emax was 5350 RFU (oxytocin receptor (titi monkey); membrane hyperpolarisation; CHO cells).
With `CCCCCCCCC(=O)NCc1ccc(O)c(OC)c1` the IC50 was 0.0216 µg/mL (mAb 5-3H1; antibody binding, indirect competitive ELISA; added: coating antigen 1-OVA).
For `COc1ccc2ccc3c(c2c1)C=[N+]1C2CCCCC2[N+]2=Cc4ccc(OCCN5CCCCC5)cc4[O][Au-]21[O]3.F[P-](F)(F)(F)(F)F` (stereo not drawn), the IC50 was 1080 nM (Klebsiella pneumoniae thioredoxin reductase; cellular enzyme activity, inhibitor; Klebsiella pneumoniae, carbapenem-resistant; 4 h).
The EC50 of `CC[C@H](C)[C@H](NC(=O)[C@H](CCCNC(=N)N)NC(=O)[C@H](CCCNC(=N)N)NC(=O)[C@H](CC(C)C)NC(=O)[C@H](Cc1ccccc1)NC(=O)CNC(=O)CNC(=O)[C@@H](N)Cc1ccc(O)cc1)C(=O)N[C@@H](CCCNC(=N)N)C(=O)N1CCC[C@H]1C(=O)N[C@@H](CCCCN)C(=O)N[C@@H](CC(C)C)C(=O)N[C@@H](CCCCN)C(=O)N[C@@H](Cc1c[nH]c2ccccc12)C(=O)N[C@@H](CC(=O)O)C(=O)N[C@@H](CC(N)=O)C(=O)N[C@@H](CCC(N)=O)C(=O)O` is reported as 2500 nM (human/Rana pipiens MOR chimera EL2; cAMP response, agonist; HEK-293T; added: isoproterenol).
`COCOC[C@H]1O[C@H](O[C@H]2[C@H](O[C@@H]3O[C@H](CO)[C@@H](O[C@H]4O[C@@H](CN)[C@@H](O)[C@H](O)[C@H]4N)[C@H]3O)[C@@H](O)[C@H](N)C[C@@H]2N)[C@H](N)[C@@H](O)[C@@H]1OCOC` gave an IC50 of 483 ± 58.5 µg/mL (ribosome with human cytosolic A site; luciferase translation, cell-free translation).
Under “fold change of IC50”, `CCCCC[N+](CCCCC)(CCCCC)CCCCC` is recorded as 2.1 fold (Shaker Δ6-46 (Drosophila); ion current, blocker, inside-out patch clamp; Xenopus oocytes; +40 mV, added: extracellular K+ 4 to 120 mM).
For `CCCO[C@H]1[C@H](O)[C@@H](N)[C@@H](O[C@H]2[C@H](O[C@@H]3O[C@H](CO)[C@@H](O[C@H]4O[C@@H](CN)[C@@H](O)[C@H](O)[C@H]4N)[C@H]3O)[C@@H](O)[C@H](N)C[C@@H]2N)O[C@@H]1CO`, the IC50 was 0.14 ± 0.02 µg/mL (Mycobacterium smegmatis ribosome wild type; translation, cell-free luciferase synthesis).
Under “spontaneous firing rate”, `C[C@H](NC(=O)[C@@H]1CCCN1C(=O)[C@H](Cc1ccc(O)cc1)NC(=O)CNC(=O)[C@H](CO)NC(=O)[C@H](Cc1ccccc1)NC(=O)[C@@H](N)[C@@H](C)O)C(=O)N[C@@H](Cc1ccccc1)C(=O)O` is recorded as “inhibited” (mu opioid receptor, rat; agonist; Sprague Dawley rat, rostral supraoptic nucleus, brain slice; focal application, dose not given).
For `NC(CNC(CNC(CC(=O)O)C(=O)O)C(=O)O)C(=O)O` (stereo not drawn), the zinc loss was about 1.8 Zn equivalents (NDM-1 metallo-beta-lactamase; ICP-MS; concentration not given).
`COC[C@@H](NC(C)=O)C(=O)NCc1ccc(OCc2cccc(Cl)c2)cc1`: “V1/2 of fast inactivation” -60 ± 2.1 mV (voltage-gated sodium channel; whole-cell patch clamp; rat embryonic cortical neurons; 10 µM).
With `C=CCO[C@H]1[C@H](O)[C@@H](N)[C@@H](O[C@H]2[C@H](O[C@@H]3O[C@H](CO)[C@@H](O[C@H]4O[C@@H](CN)[C@@H](O)[C@H](O)[C@H]4N)[C@H]3O)[C@@H](O)[C@H](N)C[C@@H]2N)O[C@@H]1CO` the IC50 was 125 ± 3.07 µg/mL (ribosome with human cytosolic A site; luciferase translation, cell-free translation).
For `C=CCn1cnc2c(NCc3ccc(C)s3)nc(N[C@H](CC)CO)nc21`, “tail current increase” read 25 to 30% (Cav2.1 calcium channel; perforated patch clamp; HEK293 transfected; 50 µM, applied during step to +10 mV; relative to: maximum).
The IC50 of `CO[C@H]1[C@H](O)[C@@H](N)[C@@H](O[C@H]2[C@H](O[C@@H]3O[C@H](CO)[C@@H](O[C@H]4O[C@@H](CN)[C@@H](O)[C@H](O)[C@H]4N)[C@H]3O)[C@@H](O)[C@H](N)C[C@@H]2N)O[C@@H]1CO` is reported as 0.22 ± 0.05 µg/mL (Mycobacterium smegmatis ribosome wild type; translation, cell-free luciferase synthesis).
For `CCCn1nnc2c(NCc3ccc(C)s3)nc(N[C@H](CC)CO)nc21`, the EC50 was 7110 nM (Cav2.1 calcium channel; tail current integral, whole-cell patch clamp; HEK293 transfected with Cav2.1).
With `COCOC[C@H]1O[C@H](O[C@H]2[C@H](O[C@@H]3O[C@H](CO)[C@@H](O[C@H]4O[C@@H](CN)[C@@H](O)[C@H](O)[C@H]4N)[C@H]3O)[C@@H](O)[C@H](N)C[C@@H]2N)[C@H](N)[C@@H](O)[C@@H]1O` the IC50 was 171 ± 22.5 µg/mL (ribosome with human cytosolic A site; luciferase translation, cell-free translation).
The dephosphorylation of `CC(C)C[C@H](NC(=O)[C@H](Cc1ccc(OP(=O)(O)O)cc1)NC(=O)[C@H](CCC(=O)O)NC(=O)[C@H](CC(=O)O)NC(=O)[C@H](C)NC(=O)[C@H](CC(=O)O)NC(=O)[C@@H](NC(=O)CCCCCNC(=O)CCCC[C@@H]1SC[C@@H]2NC(=O)N[C@@H]21)C(C)C)C(N)=O` is reported as 24% (VH1 phosphatase).
`CCCCO[C@H]1[C@H](O)[C@@H](N)[C@@H](O[C@H]2[C@H](O[C@@H]3O[C@H](CO)[C@@H](O[C@H]4O[C@@H](CN)[C@@H](O)[C@H](O)[C@H]4N)[C@H]3O)[C@@H](O)[C@H](N)C[C@@H]2N)O[C@@H]1CO` has an IC50 of 0.3 ± 0.03 µg/mL (Mycobacterium smegmatis ribosome wild type; translation, cell-free luciferase synthesis).
`COC[C@@H](NC(C)=O)C(=O)NCc1ccc(OCc2ccc(OC(F)(F)F)cc2)cc1` — result for “fraction of inactivated channels”: 0.91 ± 0.05 (voltage-gated sodium channel; whole-cell patch clamp; rat embryonic cortical neurons; 10 µM, at -50 mV).
The IC50 of `NC[C@@H]1O[C@H](O[C@H]2[C@@H](O)[C@H](O[C@@H]3[C@@H](O)[C@H](N)C[C@H](N)[C@H]3O[C@H]3O[C@H](CO)[C@@H](OCC(O)CO)[C@H](O)[C@H]3N)O[C@@H]2CO)[C@H](N)[C@@H](O)[C@@H]1O` (stereo partly drawn) is reported as 25.5 ± 2.3 µg/mL (ribosome with human cytosolic A site; luciferase translation, cell-free translation).
The cross-reactivity of `CC[C@@H]1CN2CCc3c([nH]c4cccc(OC)c34)[C@@H]2C[C@@H]1/C(=C\OC)C(=O)OC` is reported as 100% (anti-compound rabbit antibody; competitive indirect ELISA; concentration not given; relative to: compound IC50).

Excerpt of the above:
The EC50 of `CC[C@H](C)[C@H](NC(=O)[C@H](CCCNC(=N)N)NC(=O)[C@H](CCCNC(=N)N)NC(=O)[C@H](CC(C)C)NC(=O)[C@H](Cc1ccccc1)NC(=O)CNC(=O)CNC(=O)[C@@H](N)Cc1ccc(O)cc1)C(=O)N[C@@H](CCCNC(=N)N)C(=O)N1CCC[C@H]1C(=O)N[C@@H](CCCCN)C(=O)N[C@@H](CC(C)C)C(=O)N[C@@H](CCCCN)C(=O)N[C@@H](Cc1c[nH]c2ccccc12)C(=O)N[C@@H](CC(=O)O)C(=O)N[C@@H](CC(N)=O)C(=O)N[C@@H](CCC(N)=O)C(=O)O` is reported as 2500 nM (human/Rana pipiens MOR chimera EL2; cAMP response, agonist; HEK-293T; added: isoproterenol).
`COCOC[C@H]1O[C@H](O[C@H]2[C@H](O[C@@H]3O[C@H](CO)[C@@H](O[C@H]4O[C@@H](CN)[C@@H](O)[C@H](O)[C@H]4N)[C@H]3O)[C@@H](O)[C@H](N)C[C@@H]2N)[C@H](N)[C@@H](O)[C@@H]1OCOC` gave an IC50 of 483 ± 58.5 µg/mL (ribosome with human cytosolic A site; luciferase translation, cell-free translation).
